Values quoted from earlier work, collected from citations in different studies.
Numbered parts are unrelated; values within a part may stem from several laboratories. ± gives the spread as reported.

Block 1 — organism: SARS-CoV-2; effect on: viral cytopathic effect; cells: Vero E6; tested at: 20 µM
| Structure (SMILES) | inhibition |
| --- | --- |
| Cc1c(Cl)c(C)[n+]([O-])c(Cl)c1-c1noc(-c2cc(O)c(O)c([N+](=O)[O-])c2)n1 | 0.51% |
| O=C(O[C@@H]1Cc2c(O)cc(O)cc2O[C@@H]1c1cc(O)c(O)c(O)c1)c1cc(O)c(O)c(O)c1 | 0.29% |
| Cc1cc(N)c2ccccc2[n+]1CCCCCCCCCC[n+]1c(C)cc(N)c2ccccc21 | -0.08% |
| CO[C@H](C(=O)[C@@H](O)[C@@H](C)O)[C@@H]1Cc2cc3cc(O[C@H]4C[C@@H](O[C@H]5C[C@@H](O)[C@H](O)[C@@H](C)O5)[C@H](O)[C@@H](C)O4)c(C)c(O)c3c(O)c2C(=O)[C@H]1O[C@H]1C[C@@H](O[C@H]2C[C@@H](O[C@H]3C[C@](C)(O)[C@H](O)[C@@H](C)O3)[C@@H](O)[C@@H](C)O2)[C@H](O)[C@@H](C)O1 | 1.22% |

Mixed results
| SMILES | target or system | assay | system | setting | endpoint | value |
| --- | --- | --- | --- | --- | --- | --- |
| Nc1nc(=S)c2ncn([C@@H]3O[C@H](CO)[C@@H](O)[C@H]3O)c2[nH]1 | SARS-CoV-2 | cytopathic effect | Caco-2 | – | IC50 | 780 ± 140 nM |
| C[C@@H]1C[C@H]2[C@@H]3CCC4=CC(=O)C=C[C@]4(C)[C@@]3(F)[C@@H](O)C[C@]2(C)[C@@]1(O)C(=O)CO | – | – | human, plasma | oral, 20 mg | Cmax | 257 ng/mL |
| COc1ccc([C@H]2c3[nH]c4ccc(Cl)cc4c3CCN2C(=O)Oc2ccc(Cl)cc2)cc1 | SARS-CoV-2 | viral replication, measured: viral titre | – | cell culture | EC50 | 2.6 nM |
| CCCCCCCCCCCCCCCCCC[S+](CCC)c1ccccc1C(=O)OCC (centres unmarked) | SARS-CoV-2 | cytopathic effect | Caco-2 | – | IC50 | 770 ± 110 nM |

A few entries again (mixed results):
| SMILES | target or system | assay | system | setting | endpoint | value |
| --- | --- | --- | --- | --- | --- | --- |
| CCCCCCCCCCCCCCCCCC[S+](CCC)c1ccccc1C(=O)OCC (centres unmarked) | SARS-CoV-2 | cytopathic effect | Caco-2 | – | IC50 | 770 ± 110 nM |
